Published values gathered from unrelated publications.
Each numbered part is a random draw from the data of one study; scales do not carry over between parts. Positions count from the first letter of the parent shown.
Sequence of UniProt Q9UNE7 (whole entry, looked up): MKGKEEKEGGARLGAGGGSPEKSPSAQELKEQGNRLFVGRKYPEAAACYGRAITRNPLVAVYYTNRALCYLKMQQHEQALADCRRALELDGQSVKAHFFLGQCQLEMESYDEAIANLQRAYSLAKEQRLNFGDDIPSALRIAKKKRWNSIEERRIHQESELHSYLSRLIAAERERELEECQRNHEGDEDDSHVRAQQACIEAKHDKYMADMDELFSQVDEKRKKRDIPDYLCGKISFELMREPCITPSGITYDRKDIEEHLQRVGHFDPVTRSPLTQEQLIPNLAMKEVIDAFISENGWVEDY
Sequence of UniProt Q15349 (whole entry, looked up): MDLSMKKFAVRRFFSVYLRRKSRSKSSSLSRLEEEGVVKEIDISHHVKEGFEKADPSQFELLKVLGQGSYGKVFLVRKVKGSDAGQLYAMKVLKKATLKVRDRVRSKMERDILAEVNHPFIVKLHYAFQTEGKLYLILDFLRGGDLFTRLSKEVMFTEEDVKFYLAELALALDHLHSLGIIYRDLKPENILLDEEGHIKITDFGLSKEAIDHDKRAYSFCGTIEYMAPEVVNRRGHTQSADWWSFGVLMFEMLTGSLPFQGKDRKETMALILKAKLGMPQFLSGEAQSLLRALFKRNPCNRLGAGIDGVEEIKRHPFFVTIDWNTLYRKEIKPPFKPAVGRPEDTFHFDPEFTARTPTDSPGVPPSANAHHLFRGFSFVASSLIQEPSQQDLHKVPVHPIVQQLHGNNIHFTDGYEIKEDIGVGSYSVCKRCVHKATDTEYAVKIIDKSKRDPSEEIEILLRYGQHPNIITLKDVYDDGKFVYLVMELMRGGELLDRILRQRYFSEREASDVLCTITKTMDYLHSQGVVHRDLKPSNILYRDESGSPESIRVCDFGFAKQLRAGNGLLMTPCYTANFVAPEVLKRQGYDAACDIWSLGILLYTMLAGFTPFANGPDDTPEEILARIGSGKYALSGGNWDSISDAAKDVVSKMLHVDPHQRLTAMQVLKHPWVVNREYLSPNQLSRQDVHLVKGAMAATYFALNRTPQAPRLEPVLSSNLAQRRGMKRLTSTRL
Sequence of UniProt O43567 (whole entry, looked up): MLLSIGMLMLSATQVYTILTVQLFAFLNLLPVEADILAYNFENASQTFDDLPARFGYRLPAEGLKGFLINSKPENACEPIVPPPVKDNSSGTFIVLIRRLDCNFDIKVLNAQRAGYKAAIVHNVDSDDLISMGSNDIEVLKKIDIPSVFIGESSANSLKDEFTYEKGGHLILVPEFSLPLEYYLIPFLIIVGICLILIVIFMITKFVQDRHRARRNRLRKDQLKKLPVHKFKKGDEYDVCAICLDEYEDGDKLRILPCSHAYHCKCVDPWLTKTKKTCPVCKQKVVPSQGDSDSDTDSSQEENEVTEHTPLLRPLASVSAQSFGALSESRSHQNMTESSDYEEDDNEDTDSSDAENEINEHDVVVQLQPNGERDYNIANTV
Sequence of UniProt Q9BY78 (whole entry, looked up): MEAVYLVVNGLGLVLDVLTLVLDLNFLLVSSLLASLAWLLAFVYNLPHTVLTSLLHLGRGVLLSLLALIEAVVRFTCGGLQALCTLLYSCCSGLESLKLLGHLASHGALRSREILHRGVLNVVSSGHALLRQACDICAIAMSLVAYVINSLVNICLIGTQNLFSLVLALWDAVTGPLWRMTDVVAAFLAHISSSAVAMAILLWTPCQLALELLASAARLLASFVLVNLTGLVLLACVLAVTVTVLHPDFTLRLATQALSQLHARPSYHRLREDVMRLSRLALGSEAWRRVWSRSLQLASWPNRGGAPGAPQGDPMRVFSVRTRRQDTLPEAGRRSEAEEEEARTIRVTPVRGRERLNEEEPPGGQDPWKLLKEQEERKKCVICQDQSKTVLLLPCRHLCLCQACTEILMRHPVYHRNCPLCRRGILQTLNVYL
Sequence of UniProt Q9UL54 (whole entry, looked up): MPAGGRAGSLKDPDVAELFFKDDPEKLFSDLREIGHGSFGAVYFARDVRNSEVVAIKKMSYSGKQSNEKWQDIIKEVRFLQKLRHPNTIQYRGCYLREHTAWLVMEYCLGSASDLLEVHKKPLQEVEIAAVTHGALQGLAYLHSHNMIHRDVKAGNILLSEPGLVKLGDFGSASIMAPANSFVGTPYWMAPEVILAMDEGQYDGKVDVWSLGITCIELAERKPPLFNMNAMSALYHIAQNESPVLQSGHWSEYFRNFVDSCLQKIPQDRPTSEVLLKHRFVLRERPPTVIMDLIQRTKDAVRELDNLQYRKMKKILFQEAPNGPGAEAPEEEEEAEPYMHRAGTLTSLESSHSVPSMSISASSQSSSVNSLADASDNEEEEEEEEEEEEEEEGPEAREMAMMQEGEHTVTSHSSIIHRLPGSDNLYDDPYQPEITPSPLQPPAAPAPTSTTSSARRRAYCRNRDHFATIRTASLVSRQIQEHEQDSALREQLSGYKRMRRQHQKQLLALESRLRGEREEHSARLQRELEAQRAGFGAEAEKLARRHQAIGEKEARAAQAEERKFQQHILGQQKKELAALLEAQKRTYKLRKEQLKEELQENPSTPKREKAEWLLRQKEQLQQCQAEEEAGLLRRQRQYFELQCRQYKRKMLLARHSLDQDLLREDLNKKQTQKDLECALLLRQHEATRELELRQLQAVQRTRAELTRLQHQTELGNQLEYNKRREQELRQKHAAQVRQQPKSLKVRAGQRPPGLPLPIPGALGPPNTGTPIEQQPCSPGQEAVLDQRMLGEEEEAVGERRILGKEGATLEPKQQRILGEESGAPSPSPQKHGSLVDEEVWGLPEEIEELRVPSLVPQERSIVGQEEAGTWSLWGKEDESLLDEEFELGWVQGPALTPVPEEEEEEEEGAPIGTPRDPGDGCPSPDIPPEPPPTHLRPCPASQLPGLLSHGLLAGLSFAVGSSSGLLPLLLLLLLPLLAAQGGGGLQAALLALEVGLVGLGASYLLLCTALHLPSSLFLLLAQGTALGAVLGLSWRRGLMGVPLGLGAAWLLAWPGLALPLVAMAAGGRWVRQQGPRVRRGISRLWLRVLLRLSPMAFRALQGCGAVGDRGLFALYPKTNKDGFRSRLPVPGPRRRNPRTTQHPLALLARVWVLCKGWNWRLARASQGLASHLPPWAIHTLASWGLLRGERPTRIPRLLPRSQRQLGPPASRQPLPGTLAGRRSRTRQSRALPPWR
Sequence of UniProt O14965 (whole entry, looked up): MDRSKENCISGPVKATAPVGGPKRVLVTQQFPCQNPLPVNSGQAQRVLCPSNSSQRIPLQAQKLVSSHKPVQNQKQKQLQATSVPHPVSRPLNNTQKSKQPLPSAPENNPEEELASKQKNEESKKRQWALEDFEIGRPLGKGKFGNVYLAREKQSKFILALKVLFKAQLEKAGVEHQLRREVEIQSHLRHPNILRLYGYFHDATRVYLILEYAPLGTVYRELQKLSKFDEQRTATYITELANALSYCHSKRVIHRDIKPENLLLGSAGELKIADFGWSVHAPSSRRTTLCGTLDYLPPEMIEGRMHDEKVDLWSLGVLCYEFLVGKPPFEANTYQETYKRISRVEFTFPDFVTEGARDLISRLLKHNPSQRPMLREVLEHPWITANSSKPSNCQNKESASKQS

Sample 1 — target: UBE2W UBC core domain (UniProt Q96B02); technique: yeast two-hybrid; sample: yeast; setting: mostly zero background; baseline: not given; reading: higher = stronger interaction; endpoint: lacZ reporter activity
Sequence of UniProt Q96B02 (whole entry, looked up): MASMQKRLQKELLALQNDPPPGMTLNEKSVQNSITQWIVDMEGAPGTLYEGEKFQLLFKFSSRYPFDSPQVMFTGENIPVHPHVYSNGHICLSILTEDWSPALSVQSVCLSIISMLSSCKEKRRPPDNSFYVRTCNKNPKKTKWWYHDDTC
RNF26 RING domain (UniProt Q9BY78): 9500
RNF167 RING domain (UniProt Q9H6Y7): 4090
STUB1 RING domain (UniProt Q9UNE7): 0
RNF13 RING domain (UniProt O43567): 0

Sample 2 — target: CCNB2, cyclin fold, Cln2 fusion (human); technique: yeast growth competition, sequencing; sample: yeast; setting: strong parent motif; baseline: not given; reading: higher = stronger binding; endpoint: normalised enrichment score
Starting sequence: viral docking peptide; YKVKRRLVFGADD; partner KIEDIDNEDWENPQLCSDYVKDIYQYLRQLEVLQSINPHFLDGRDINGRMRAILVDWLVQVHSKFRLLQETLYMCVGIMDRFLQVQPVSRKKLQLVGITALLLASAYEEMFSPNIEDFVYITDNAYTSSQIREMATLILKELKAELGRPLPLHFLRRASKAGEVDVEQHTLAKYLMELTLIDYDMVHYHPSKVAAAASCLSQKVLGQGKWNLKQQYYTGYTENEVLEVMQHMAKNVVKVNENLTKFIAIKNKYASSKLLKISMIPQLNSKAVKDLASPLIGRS
YKVKRRWVFGADD [L7W]: 0.144
YKVKRGLVFGADD [R6G]: -0.00289
YKVRRRLVFGADD [K4R]: 2.44
YKVKRRLVFWADD [G10W]: 1.2
YKVKRRNVFGADD [L7N]: 0.813
YKVKRRLRFGADD [V8R]: 0.809
YKVKRFLVFGADD [R6F]: 0.417
YKVKRRPVFGADD [L7P]: 0.609

Sample 3 — observed: enzyme activity; concentration: 0.5 µM; endpoint: remaining activity
SMILES: O=c1[nH]c2ccccc2n1C1CCN(Cc2ccc(-c3[nH]c4cc5ncnc5cc4nc3-c3ccccc3)cc2)CC1
RPS6KA2 (Homo sapiens, UniProt Q15349); inhibitor; baseline: control: 101%
TAOK2 (Homo sapiens, UniProt Q9UL54); inhibitor; baseline: control: 98.8%
Aurora kinase A (AURKA, Homo sapiens, UniProt O14965): 99%

Single results of other studies
CNC(=O)Oc1ccc2c(c1)[C@]1(C)CCN(C)[C@@H]1N2C  nuclei count (mouse MPNST tumor cells; high-content nuclear imaging, measured: cell number; 10 µM, 12 h, mean of 2 replicates; baseline: plate mean, higher = more cells): 0.132 z-score

A few entries again (single results of other studies):
CNC(=O)Oc1ccc2c(c1)[C@]1(C)CCN(C)[C@@H]1N2C  nuclei count (mouse MPNST tumor cells; high-content nuclear imaging, measured: cell number; 10 µM, 12 h, mean of 2 replicates; baseline: plate mean, higher = more cells): 0.132 z-score
